Measurements collected from several papers.
Every numbered part comes from another study and shows a few of its results, in no order. Changes are numbered by the printed parent chain.

Block 1 — method: DHFR PCA, deep sequencing; medium: yeast; with: (+)-ABA 0.0091 µM; baseline: wild-type fitted maximum; direction: higher = stronger binding
Target: ABI1, truncated, D143A, DHFR fusion (Arabidopsis thaliana)
Setting: methotrexate growth selection, single substitutions
Starting sequence: PYL1, truncated, DHFR fusion (Arabidopsis thaliana); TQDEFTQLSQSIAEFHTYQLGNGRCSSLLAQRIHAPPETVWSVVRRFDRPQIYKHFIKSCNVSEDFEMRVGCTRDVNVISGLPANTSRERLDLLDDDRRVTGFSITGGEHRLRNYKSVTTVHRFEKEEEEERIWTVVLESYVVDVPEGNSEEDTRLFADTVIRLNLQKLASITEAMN
Variant	relative binding score
A84T	24%
P83Y	5.33%
L91R	-0.672%
C25D	-1.83%
D75R	5.84%
N165P	4.69%
G148C	6.06%

Block 2 — target: CCNE2, cyclin fold, Cln2 fusion (human); method: yeast growth competition, sequencing; medium: yeast; setting: weak parent motif; baseline: not given; direction: higher = stronger binding
Starting sequence: CDC6 docking peptide (human); TLKGRRLVFDNQL
Variant	normalised enrichment score
TLKGRRLIFDNQL [V8I]	0.574
TLVGRRLVFDNQL [K3V]	0.737
TLKGRCLVFDNQL [R6C]	0.485
TMKGRRLVFDNQL [L2M]	0.0877
TLNGRRLVFDNQL [K3N]	0.487
TLKGPRLVFDNQL [R5P]	-0.7
TLAGRRLVFDNQL [K3A]	0.382
TLKGRRLVRDNQL [F9R]	0.413

Block 3 — method: protein-binding microarray; form: double-stranded DNA, one strand shown; medium: in vitro; concentration: 250 nM; setting: 60-bp whole probe; with: salmon DNA 0.4 mg/ml; baseline: random background probes; direction: higher = stronger binding; constant ends, left off below: GCCTAGCAC … GTCTTGATTCGCTTGACGCTGCTG
Target: Interferon regulatory factor 7, full length, phosphomimetic (IRF7, Homo sapiens, UniProt Q92985, residues 1-503, S101K/S471D/S472D/S475D/S476D/S477D/S483D/S484D/S487D)
Residues (chain): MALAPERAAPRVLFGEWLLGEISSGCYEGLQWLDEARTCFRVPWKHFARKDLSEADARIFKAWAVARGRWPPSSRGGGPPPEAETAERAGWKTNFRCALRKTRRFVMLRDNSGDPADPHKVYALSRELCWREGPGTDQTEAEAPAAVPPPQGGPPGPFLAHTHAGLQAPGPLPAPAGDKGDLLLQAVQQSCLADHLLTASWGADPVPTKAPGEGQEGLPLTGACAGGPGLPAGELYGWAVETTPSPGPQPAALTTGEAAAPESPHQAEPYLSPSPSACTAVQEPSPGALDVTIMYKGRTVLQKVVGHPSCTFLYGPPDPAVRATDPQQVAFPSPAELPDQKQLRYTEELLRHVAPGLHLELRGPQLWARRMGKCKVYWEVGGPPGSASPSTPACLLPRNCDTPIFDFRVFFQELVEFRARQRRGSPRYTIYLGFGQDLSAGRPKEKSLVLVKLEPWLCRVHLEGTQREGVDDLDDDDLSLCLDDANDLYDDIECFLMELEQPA
Sequence	log fluorescence [z-score]
TCACATACGAGTTTCCATTTGTGCTAG	6.56
GTGAGTCCCACATCTCTGTCCGTGCTA	-0.148
GACGATTTCATTTCCGAGACGTGCTAG	0.822
GACCGTTTCGGACTGGGGACGTGCTAG	2.46
TTTTTTTTTTTTTTGGAATGGTGCTAG	0.762
GTCGGTATCGACTATCGGGACGTGCTA	0.0381
GAGGATCTCAGTTTCGAGACGTGCTAG	3.69
GACGATATCGGTTTTCGAGACGTGCTA	1.02
TTAGATTTCAGTATCGATAAGTGCTAG	0.613
GACGGACTGGACATTCGGGACGTGCTA	-0.492
GACGGTCTCCTTATCTTGACGTGCTAG	0.164

Mixed results
Substance	target	test	test system	conditions	how to read	quantity	result
PhoQ, residues 284 288 289 292 302 303 SLCLSL	PhoP, residues 12 14 15 18 19 LHSVW (Escherichia coli, UniProt P23836)	Sort-seq, measured: YFP reporter	E. coli	PhoQ-PhoP variant library, with: 10 µM Mg2+	baseline: high Mg2+ state, higher = stronger signaling	fold induction	1.57
